Results gathered from unrelated publications.
Lines come from different studies, so protocols differ. Values joined by “and” are separate records of one study, mostly repeats; a detail may differ. Numbers after ± are the reported error.

CC(=O)Nc1cccc(-n2c(=O)n(C3CC3)c(=O)c3c(Nc4ccc(I)cc4F)n(C)c(=O)c(C)c32)c1  viability (MeWo; resazurin; concentration not given, 72 h, unit not given; relative to: DMSO): 0.887 and 0.531 and 0.686 and 0.593 and 0.951 and 0.633
Cc1ncc(CO)c(C=O)c1O  host cell number (HCT-8 infected with Cryptosporidium parvum; Hoechst nuclei count; 1 mM, 24 h; relative to: PBS): 0.892 ± 0.044
C[C@@H](c1ncncc1F)[C@](O)(Cn1cncn1)c1ccc(F)cc1F  mass recovery (MDCK; 1 µM, 90 min, pH 7.4 apical, 7.4 basolateral, apical to basolateral): 101 ± 14%
Oc1cccc2[nH]ccc12  host cell number (HCT-8 infected with Cryptosporidium parvum; Hoechst nuclei count; 1 mM, 24 h; relative to: PBS): 0.798 ± 0.025
Cc1cc(C(=O)NC(C)(C)COc2cccc3c2C(N)=NS(=O)(=O)N3)cc(C)n1  cytotoxicity (human peripheral blood lymphocytes; CBPI, concurrent micronucleus test; 500 µg/mL, 4 h; relative to: vehicle control): -1%
O=C(O)c1cc(O)c2cccc(O)c2n1  host cell number (HCT-8 infected with Cryptosporidium parvum; Hoechst nuclei count; 1 mM, 24 h; relative to: PBS): 0.915 ± 0.059
CCn1c(=O)c2c(nc(/C=C/c3ccc(OC)c(OC)c3)n2C)n(CC)c1=O  Papp (MDCK; 1 µM, 90 min, pH 6.5 apical, 7.4 basolateral, basolateral to apical): 35.8 ×10⁻⁶ cm/s
NC(=O)Cc1c[nH]c2ccccc12  host cell number (HCT-8 infected with Cryptosporidium parvum; Hoechst nuclei count; 1 mM, 24 h; relative to: PBS): 0.955 ± 0.046
CC(C)n1nccc1-c1ncccc1COc1cccc(O)c1C=O  mass recovery (MDCK; 1 µM, 90 min, pH 6.5 apical, 7.4 basolateral, basolateral to apical): 88 ± 7%
Cc1noc(C)c1Cn1cc(N2C(=O)CN(Cc3cccc(O)c3)C2=O)cn1  aberrant cells with gaps (human blood lymphocytes; 400 µg/mL, 21 h): 0.5%
Cc1c(C)c2c(c(C)c1O)CCC(C)(COc1ccc(CC3SC(=O)NC3=O)cc1)O2 (stereo not drawn)  viability (THLE-2, 3D culture; MTT; 100 µM, 72 h): 47%
Cc1cnc(Nc2ccc(OCCN3CCCC3)cc2)nc1Nc1cccc(S(=O)(=O)NC(C)(C)C)c1  Papp A to B (MDCK; 1 µM, 90 min, pH 6.5 apical, 7.4 basolateral): 0.31 ×10⁻⁶ cm/s

Some of these lines once more:
Cc1noc(C)c1Cn1cc(N2C(=O)CN(Cc3cccc(O)c3)C2=O)cn1  aberrant cells with gaps (human blood lymphocytes; 400 µg/mL, 21 h): 0.5%
Cc1c(C)c2c(c(C)c1O)CCC(C)(COc1ccc(CC3SC(=O)NC3=O)cc1)O2 (stereo not drawn)  viability (THLE-2, 3D culture; MTT; 100 µM, 72 h): 47%
